Published values of several laboratories.
Compare with care: the assays were run in different laboratories. ± gives the spread as reported.
MCA2: Metacaspase-2 (MCA2, Trypanosoma brucei brucei, UniProt Q585F3)
UniProt Q585F3, sequence (whole entry, looked up): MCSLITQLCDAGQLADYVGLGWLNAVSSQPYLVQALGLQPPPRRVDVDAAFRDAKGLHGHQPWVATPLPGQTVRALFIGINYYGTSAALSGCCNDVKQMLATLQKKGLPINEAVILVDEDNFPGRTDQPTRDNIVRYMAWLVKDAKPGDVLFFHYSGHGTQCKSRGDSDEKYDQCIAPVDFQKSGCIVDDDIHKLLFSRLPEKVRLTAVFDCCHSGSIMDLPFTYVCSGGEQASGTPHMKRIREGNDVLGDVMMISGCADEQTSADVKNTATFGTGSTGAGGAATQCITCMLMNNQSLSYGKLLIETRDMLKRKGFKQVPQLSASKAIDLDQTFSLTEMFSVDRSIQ
blaNDM-1: Metallo-beta-lactamase type 2 (blaNDM-1, Klebsiella pneumoniae, UniProt C7C422)
UniProt C7C422, sequence (whole entry, looked up): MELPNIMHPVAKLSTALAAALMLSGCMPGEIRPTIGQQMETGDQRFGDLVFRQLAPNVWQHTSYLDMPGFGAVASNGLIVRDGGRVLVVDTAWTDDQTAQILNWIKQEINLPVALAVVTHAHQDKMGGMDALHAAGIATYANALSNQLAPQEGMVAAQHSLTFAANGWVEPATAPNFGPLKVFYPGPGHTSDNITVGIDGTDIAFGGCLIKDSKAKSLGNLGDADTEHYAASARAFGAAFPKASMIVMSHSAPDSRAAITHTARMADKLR
UniProt A0A024B7W1, sequence (whole entry, looked up): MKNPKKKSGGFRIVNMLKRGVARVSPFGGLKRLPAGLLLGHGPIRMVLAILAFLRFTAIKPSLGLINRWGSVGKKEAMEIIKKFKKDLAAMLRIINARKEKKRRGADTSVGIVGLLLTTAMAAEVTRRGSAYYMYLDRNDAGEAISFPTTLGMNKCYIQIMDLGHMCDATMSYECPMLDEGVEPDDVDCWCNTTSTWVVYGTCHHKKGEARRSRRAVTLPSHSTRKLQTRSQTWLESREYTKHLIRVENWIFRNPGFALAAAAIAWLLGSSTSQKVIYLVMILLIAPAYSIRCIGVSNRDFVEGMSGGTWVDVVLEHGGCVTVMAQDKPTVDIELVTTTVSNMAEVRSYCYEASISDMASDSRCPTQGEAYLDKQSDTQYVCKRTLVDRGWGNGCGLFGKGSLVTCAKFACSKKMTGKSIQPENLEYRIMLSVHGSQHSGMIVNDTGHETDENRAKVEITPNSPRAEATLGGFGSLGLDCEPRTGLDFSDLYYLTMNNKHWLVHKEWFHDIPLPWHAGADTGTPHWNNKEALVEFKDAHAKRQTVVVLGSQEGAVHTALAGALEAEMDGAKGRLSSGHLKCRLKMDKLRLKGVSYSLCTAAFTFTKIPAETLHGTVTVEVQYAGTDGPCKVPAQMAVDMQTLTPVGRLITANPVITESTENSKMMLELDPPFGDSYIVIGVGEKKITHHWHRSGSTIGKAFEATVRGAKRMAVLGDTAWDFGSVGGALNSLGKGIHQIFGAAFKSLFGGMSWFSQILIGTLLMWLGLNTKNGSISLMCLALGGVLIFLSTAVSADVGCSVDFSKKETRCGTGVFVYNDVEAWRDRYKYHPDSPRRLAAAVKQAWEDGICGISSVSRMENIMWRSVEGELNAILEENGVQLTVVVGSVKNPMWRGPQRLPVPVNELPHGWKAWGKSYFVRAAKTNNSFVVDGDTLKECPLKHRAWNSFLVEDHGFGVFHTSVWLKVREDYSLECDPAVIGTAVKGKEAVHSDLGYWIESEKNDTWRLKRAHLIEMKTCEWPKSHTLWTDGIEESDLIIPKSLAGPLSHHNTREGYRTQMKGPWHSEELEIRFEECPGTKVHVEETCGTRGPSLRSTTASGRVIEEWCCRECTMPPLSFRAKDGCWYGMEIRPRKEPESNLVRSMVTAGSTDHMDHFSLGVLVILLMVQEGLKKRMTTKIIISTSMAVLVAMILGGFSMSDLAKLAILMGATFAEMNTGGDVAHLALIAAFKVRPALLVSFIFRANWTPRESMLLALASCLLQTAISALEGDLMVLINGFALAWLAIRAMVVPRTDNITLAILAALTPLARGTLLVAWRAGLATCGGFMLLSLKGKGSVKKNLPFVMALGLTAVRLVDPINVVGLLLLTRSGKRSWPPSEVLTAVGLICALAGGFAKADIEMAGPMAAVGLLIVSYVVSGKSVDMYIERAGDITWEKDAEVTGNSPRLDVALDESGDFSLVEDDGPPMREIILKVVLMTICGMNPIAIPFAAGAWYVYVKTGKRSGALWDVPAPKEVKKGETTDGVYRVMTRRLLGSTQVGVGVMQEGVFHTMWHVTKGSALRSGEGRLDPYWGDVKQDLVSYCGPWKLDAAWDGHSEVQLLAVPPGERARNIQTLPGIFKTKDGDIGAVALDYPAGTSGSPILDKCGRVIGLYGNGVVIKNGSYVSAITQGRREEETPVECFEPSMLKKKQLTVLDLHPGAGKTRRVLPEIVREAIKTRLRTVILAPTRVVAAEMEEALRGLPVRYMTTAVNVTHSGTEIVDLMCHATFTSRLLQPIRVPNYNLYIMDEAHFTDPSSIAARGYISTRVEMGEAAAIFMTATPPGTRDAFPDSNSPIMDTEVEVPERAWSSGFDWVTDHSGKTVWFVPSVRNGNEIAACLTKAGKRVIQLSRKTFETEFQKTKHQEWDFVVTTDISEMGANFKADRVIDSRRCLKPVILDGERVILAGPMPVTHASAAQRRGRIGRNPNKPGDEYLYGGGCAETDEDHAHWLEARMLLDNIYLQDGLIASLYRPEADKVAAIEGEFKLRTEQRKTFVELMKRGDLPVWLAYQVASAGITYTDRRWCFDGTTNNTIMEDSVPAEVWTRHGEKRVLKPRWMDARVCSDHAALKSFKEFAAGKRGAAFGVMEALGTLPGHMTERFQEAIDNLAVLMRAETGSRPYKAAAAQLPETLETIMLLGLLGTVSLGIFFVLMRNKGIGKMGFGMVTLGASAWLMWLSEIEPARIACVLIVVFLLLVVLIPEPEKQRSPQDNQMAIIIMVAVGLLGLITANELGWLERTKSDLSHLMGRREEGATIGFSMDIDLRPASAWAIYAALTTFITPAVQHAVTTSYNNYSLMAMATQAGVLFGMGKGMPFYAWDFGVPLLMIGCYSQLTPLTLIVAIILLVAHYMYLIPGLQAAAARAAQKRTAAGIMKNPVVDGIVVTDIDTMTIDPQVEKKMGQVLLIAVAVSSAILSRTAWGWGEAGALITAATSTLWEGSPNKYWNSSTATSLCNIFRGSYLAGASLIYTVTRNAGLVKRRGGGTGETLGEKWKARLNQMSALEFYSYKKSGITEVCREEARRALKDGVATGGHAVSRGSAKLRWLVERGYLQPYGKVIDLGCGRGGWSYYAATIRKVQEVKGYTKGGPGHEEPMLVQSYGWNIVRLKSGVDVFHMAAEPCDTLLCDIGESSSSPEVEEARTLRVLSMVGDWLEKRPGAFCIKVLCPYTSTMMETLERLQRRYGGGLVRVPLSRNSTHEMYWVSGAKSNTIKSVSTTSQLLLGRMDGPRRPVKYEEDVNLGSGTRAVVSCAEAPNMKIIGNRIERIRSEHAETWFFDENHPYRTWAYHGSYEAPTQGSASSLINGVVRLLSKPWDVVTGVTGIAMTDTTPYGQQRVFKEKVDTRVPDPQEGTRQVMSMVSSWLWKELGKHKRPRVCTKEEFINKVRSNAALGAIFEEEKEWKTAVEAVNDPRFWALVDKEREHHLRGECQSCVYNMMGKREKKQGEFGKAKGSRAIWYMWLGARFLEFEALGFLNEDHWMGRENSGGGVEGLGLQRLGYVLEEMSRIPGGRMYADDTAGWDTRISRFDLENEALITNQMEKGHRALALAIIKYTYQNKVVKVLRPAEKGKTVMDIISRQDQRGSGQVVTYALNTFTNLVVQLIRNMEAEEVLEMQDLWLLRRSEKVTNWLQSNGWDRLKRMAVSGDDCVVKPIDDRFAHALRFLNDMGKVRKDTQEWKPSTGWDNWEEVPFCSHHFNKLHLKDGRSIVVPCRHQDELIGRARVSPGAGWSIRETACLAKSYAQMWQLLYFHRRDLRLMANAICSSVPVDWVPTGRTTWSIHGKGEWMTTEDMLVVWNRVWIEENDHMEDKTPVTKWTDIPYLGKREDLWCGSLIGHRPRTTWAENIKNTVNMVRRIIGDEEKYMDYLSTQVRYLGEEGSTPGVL
UniProt Q6DWJ6, sequence (whole entry, looked up): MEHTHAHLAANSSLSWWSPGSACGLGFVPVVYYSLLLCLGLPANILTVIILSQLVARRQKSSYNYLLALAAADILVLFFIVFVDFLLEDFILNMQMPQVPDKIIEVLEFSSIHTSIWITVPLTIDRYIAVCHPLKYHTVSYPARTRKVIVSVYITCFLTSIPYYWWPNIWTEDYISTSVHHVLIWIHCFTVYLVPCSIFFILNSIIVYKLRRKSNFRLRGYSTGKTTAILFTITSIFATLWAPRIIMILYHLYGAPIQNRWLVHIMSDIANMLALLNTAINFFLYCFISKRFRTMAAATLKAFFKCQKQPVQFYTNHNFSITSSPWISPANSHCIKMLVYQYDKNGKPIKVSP
UniProt P32300, sequence (whole entry, looked up): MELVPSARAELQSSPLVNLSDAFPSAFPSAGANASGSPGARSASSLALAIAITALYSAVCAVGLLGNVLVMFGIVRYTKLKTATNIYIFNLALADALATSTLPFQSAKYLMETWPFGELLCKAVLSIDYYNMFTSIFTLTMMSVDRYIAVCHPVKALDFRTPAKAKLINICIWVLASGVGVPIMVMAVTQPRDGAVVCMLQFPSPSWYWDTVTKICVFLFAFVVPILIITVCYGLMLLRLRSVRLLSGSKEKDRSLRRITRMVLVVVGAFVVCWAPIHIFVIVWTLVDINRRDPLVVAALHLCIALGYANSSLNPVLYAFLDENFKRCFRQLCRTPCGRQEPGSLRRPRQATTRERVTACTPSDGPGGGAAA

SMILES = C[C@H](NC(=O)[C@H](CCCCN)NC(=O)c1ccccc1N)C(=O)N[C@@H](CCCNC(=N)N)C(=O)N[C@@H](CO)C(=O)N[C@@H](Cc1ccccc1)C(=O)N[C@@H](C)C(=O)N[C@@H](CCC(N)=O)C(=O)NCCNc1ccc([N+](=O)[O-])cc1[N+](=O)[O-]; tested on = MCA2; assay = enzyme activity, competitive inhibitor; test system = Trypanosoma brucei; conditions = together with: Z-FR-AMC substrate; quantity = Ki; result = 9.6 µM
SMILES = CC(C)C[C@H]1NC(=O)[C@@H]2CCCN2C(=O)[C@@H](CS)NC(=O)[C@@H](C(C)C)NC(=O)[C@H](CO)NC(=O)[C@H](CCC(=O)O)NC(=O)[C@@H](CCCNC(=N)N)NC(=O)[C@H](C)NC1=O; tested on = blaNDM-1; assay = enzyme activity, inhibitor; conditions = together with: nitrocefin 1.5 µM; quantity = Ki; result = 415 µM
SMILES = CC(C)[C@@H]1NC(=O)[C@H](Cc2ccccc2)NC(=O)[C@H](Cc2ccc(O)cc2)NC(=O)CCSSC[C@@H](C(=O)N2CCC[C@H]2C(=O)N[C@H](CCCNC(=N)N)C(=O)NCC(N)=O)NC(=O)[C@H](CC(N)=O)NC(=O)[C@H](C(C)C)NC(=O)[C@H](Cc2ccccc2)NC(=O)[C@H](Cc2ccc(O)cc2)NC(=O)CCSSC[C@@H](C(=O)N2CCC[C@H]2C(=O)N[C@H](CCCNC(=N)N)C(=O)NCC(N)=O)NC(=O)[C@H](CC(N)=O)NC1=O; tested on = AVPR1A (Homo sapiens, UniProt P37288); assay = ligand displacement, radioligand; conditions = cell membranes; quantity = Ki; result = 0.0534 µM
SMILES = CC(C)(COP(=O)(O)OP(=O)(O)OC[C@H]1O[C@@H](n2cnc3c(N)ncnc32)[C@H](O)[C@@H]1OP(=O)(O)O)[C@@H](O)C(=O)NCCC(=O)NCCSCC(=O)N[C@@H](CO)C(=O)NCC(=O)N[C@@H](CCCNC(=N)N)C(=O)N[C@@H](CCCCN)C(=O)N[C@@H](CCCCN)C(=O)N[C@@H](CCCNC(=N)N)C(=O)N[C@@H](CCCNC(=N)N)C(=O)N[C@@H](CCC(N)=O)C(=O)N[C@@H](CCCNC(=N)N)C(=O)N[C@@H](CCCNC(=N)N)C(=O)N[C@@H](CCCNC(=N)N)C(N)=O; tested on = NAA40 (Homo sapiens, UniProt Q86UY6); assay = enzyme activity, inhibitor, fluorescence; quantity = Ki; result = 0.169 µM
SMILES = Cc1cc(O)cc(C)c1C[C@H](N)C(=O)N[C@H](CCCNC(=N)N)C(=O)N[C@@H](Cc1ccccc1)C(=O)N[C@@H](CCCCNC(=O)CN1CCN(CC(=O)O)CCN(CC(=O)O)CCN(CC(=O)O)CC1)C(N)=O; tested on = Oprd1 (Mus musculus, UniProt P32300); assay = ligand displacement, radioligand; conditions = cell membranes; quantity = Ki; result = 0.0187 µM
SMILES = C[C@H](NC(=O)[C@H](CCCCN)NC(=O)c1ccccc1N)C(=O)N[C@@H](CCC(=O)O)C(=O)N[C@@H](CO)C(=O)N[C@@H](CO)C(=O)N[C@@H](C)C(=O)N[C@@H](CCC(N)=O)C(=O)NCCNc1ccc([N+](=O)[O-])cc1[N+](=O)[O-]; tested on = MCA2; assay = enzyme activity, competitive inhibitor; test system = Trypanosoma brucei; conditions = together with: Z-FR-AMC substrate; quantity = Ki; result = 3.5 µM
SMILES = CC(C)[C@H]1NC(=O)C[C@H]2/C=C/CCSSC[C@@H](NC1=O)C(=O)N[C@H](Cc1cccc3ccccc13)C(=O)NCC(=O)O2; tested on = MAP3K12 (Homo sapiens, UniProt Q12852); assay = enzyme activity, inhibitor; conditions = 10 µM; quantity = inhibition; result = 9.3%
SMILES = CC(C)C[C@@H]1NC(=O)[C@@H]2CCCN2C(=O)[C@@H](CS)NC(=O)[C@H](Cc2ccc(O)cc2)NC(=O)[C@@H](CCCNC(=N)N)NC(=O)[C@@H](CCCNC(=N)N)NC(=O)[C@H](CCC(=O)O)NC(=O)[C@@H]2CCCN2C1=O; tested on = blaNDM-1; assay = enzyme activity, inhibitor; conditions = together with: nitrocefin 1.5 µM; quantity = Ki; result = 5.32 µM
SMILES = CC(C)C[C@H](NC(=O)[C@H](CCCCN)NC(=O)[C@H](CCCNC(=N)N)NC(=O)Cc1cccc(CNC(=O)[C@@H](C)NC(=N)N)c1)B(O)O; tested on = Genome polyprotein, NS2B-NS3 protease (ZIKV, UniProt A0A024B7W1); assay = inhibitor; test system = Zika virus; quantity = Ki; result = 0.0508 ± 0.0055 µM
SMILES = CC(C)(C)C(=O)OCOP(=O)(OCOC(=O)C(C)(C)C)C1CCCN(O)C1=O (stereo not shown); tested on = HOP-92; quantity = log LC50; result = > -4 log M
SMILES = CN(C)[C@H]1C[C@@]23CC[C@@]4(O2)C(=CC[C@]2(C)[C@@H](c5ccc6ccncc6c5)CC[C@H]24)C=C3[C@@H](O)[C@@H]1O; tested on = TLK2 (Homo sapiens, UniProt Q86UE8); assay = ATP probe labelling, inhibitor, KiNativ profiling; conditions = 1 µM; quantity = inhibition; result = -6.4%
SMILES = C[C@@H](Cc1ccsc1)NC(=O)NC[C@H](Cc1ccc(O)cc1)N(C)C; tested on = NTSR1 (Homo sapiens, UniProt P30989); quantity = Ki; result = > 50 µM
SMILES = Cc1cc(O)cc(C)c1CCC(=O)N[C@@H]1C/C=C\CC[C@@H](C(N)=O)NC(=O)[C@H](Cc2ccccc2)NC(=O)[C@H](Cc2ccccc2)NC1=O; tested on = Oprm1 (Rattus norvegicus, UniProt P33535); assay = ligand displacement, radioligand; conditions = cell membranes; quantity = Ki; result = 0.0235 µM
SMILES = COc1ccccc1-c1n[nH]c2nc(NC3CCN(C(=O)Cc4ccc(F)cc4F)CC3)ncc12; assay = bead binding, competition bead pull-down, refers to: LINJ.26.2250; test system = Leishmania donovani extract; conditions = 10 µM; how to read = baseline: vehicle; quantity = relative abundance; result = 1.22
SMILES = CC[C@H](C)[C@H](NC(=O)[C@H](CCCNC(=N)N)NC(=O)[C@H](CCCNC(=N)N)NC(=O)[C@H](CC(C)C)NC(=O)[C@H](Cc1ccccc1)NC(=O)CNC(=O)CNC(=O)[C@@H](N)Cc1ccc(O)cc1)C(=O)N[C@@H](CCCNC(=N)N)C(=O)N1CCC[C@H]1C(=O)N[C@@H](CCCCN)C(=O)N[C@@H](CC(C)C)C(=O)N[C@@H](CCCCN)C(=O)O; tested on = GPR139 (Homo sapiens, UniProt Q6DWJ6); assay = ligand displacement, radioligand; conditions = cell membranes; quantity = Ki; result = 0.0566 µM
SMILES = O=C1NC2(CC2)COc2ncc(F)cc2[C@H]2COCCN2c2ccn3ncc1c3n2; test system = Sprague-Dawley rat, female, serum; conditions = oral, 20 mg/kg/day, end of treatment, 4-week subacute toxicity; quantity = serum sodium; result = 146 ± 2 mmol/L

A few entries again:
SMILES = CC(C)C[C@H]1NC(=O)[C@@H]2CCCN2C(=O)[C@@H](CS)NC(=O)[C@@H](C(C)C)NC(=O)[C@H](CO)NC(=O)[C@H](CCC(=O)O)NC(=O)[C@@H](CCCNC(=N)N)NC(=O)[C@H](C)NC1=O; tested on = blaNDM-1; assay = enzyme activity, inhibitor; conditions = together with: nitrocefin 1.5 µM; quantity = Ki; result = 415 µM
SMILES = O=C1NC2(CC2)COc2ncc(F)cc2[C@H]2COCCN2c2ccn3ncc1c3n2; test system = Sprague-Dawley rat, female, serum; conditions = oral, 20 mg/kg/day, end of treatment, 4-week subacute toxicity; quantity = serum sodium; result = 146 ± 2 mmol/L
SMILES = Cc1cc(O)cc(C)c1CCC(=O)N[C@@H]1C/C=C\CC[C@@H](C(N)=O)NC(=O)[C@H](Cc2ccccc2)NC(=O)[C@H](Cc2ccccc2)NC1=O; tested on = Oprm1 (Rattus norvegicus, UniProt P33535); assay = ligand displacement, radioligand; conditions = cell membranes; quantity = Ki; result = 0.0235 µM
